# Measurements pooled from the literature.
# Parts stem from different laboratories: compare values within a part only.

# Series 1 — method: RNA Bind-n-Seq; form: RNA; sample: in vitro; tested at: 1 µM; notes: whole 134-nt RNA, ends assumed; together with: 150 mM KCl; baseline: input library; direction: higher = stronger binding
# Target: Ras GTPase-activating protein-binding protein 1, C-terminal RGG region (G3BP1, Homo sapiens, UniProt Q13283)
# Sequence of UniProt Q13283 (whole entry, looked up): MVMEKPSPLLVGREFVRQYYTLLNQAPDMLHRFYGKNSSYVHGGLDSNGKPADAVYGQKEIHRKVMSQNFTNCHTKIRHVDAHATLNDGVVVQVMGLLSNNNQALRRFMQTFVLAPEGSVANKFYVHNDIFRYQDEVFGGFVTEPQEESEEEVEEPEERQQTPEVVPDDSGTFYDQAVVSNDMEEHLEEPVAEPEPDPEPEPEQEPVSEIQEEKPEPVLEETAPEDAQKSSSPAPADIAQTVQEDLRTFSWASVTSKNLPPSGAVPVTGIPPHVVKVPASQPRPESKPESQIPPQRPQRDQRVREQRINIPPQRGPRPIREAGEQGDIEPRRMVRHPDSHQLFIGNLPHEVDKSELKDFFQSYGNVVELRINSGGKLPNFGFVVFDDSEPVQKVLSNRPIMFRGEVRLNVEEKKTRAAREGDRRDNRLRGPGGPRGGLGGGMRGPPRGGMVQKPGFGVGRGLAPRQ
# Constant ends, left off below: GGGAGUUCUACAGUCCGACGAUC … UGGAAUUCUCGGGUGUCAAGG
Sequence,log2 enrichment
UGCAUUUCCUGAGCUGAAGAAGGACCCAGACAUGGUGAAGGACAUCAUUAAUGAAGAAGAGGUGCAGUUUCUCAAGACUCUCAGCAGAGG,-1.37
GCAGGAAGUAAAAACAAAUGGAAAUGCUUCGGAUAGUGGCAGGGGUGGGGGUUGCUAAGGAAAGGGUGGGAUGGGAGUGGGUAAAGAAAA,2.12
CUGUGCUACACAUCGUAUGUACCGAAUCGGGUUUUUUUGGGUUUUUUUGGUUUUUUUGGGGAAAGUAUUAUGUUACGCCGUUCGGAUCUG,-1.28
UGGCCCUGGUGGCAUGCGGGGAGGAAGAGGUGGCCUCAUGGAUCGUGGUGGUCCCGGUGGAAUGUUCAGAGGUGGCCGAGGUGGAGACAG,2.76
UGCGGGCGGCUGAGACGCCGCCUGCCUGGCACCUAGGAGCGCAGCGGAGCCCCGACACCGCCGCCGCCGCCAUGGAGUCCGAGACCGAAC,-0.0686
UGUGCUACACAUCGUAUGUACCGAAUCGGGGUUUUUUUGGGGUUUUUUUGGGGUUUUUUUGGAAAGUAUUAUGUUACGCCGUUCGGAUCU,-0.703
CCUCAAGUCCUGUGCUACACAUCGUAUGUACCGAAUCGGGGCGGCGGGCGGGAAAGUAUUAUGUUACGCCGUUCGGAUCUGCACUUCCAG,0.27
UCAAGUCCUGUGCUACACAUCGUAUGUACCGAAUCGGGGUGGGGUGGGGUGGGGAAAGUAUUAUGUUACGCCGUUCGGAUCUGCACUUCC,2.14
GUGCUACACAUCGUAUGUACCGAAUCGGGGCCCCCCCGGGGCCCCCCCGGGGCCCCCCCGGGGAAAGUAUUAUGUUACGCCGUUCGGAUC,-2.85

# Series 2 — method: protein-binding microarray; form: double-stranded DNA, one strand shown; sample: in vitro; tested at: 2200 nM top; notes: 60-bp whole probe; together with: salmon DNA 0.4 mg/ml; baseline: random background probes; direction: higher = stronger binding; constant ends, left off below: GCCTAGCAC … GTCTTGATTCGCTTGACGCTGCTG
# Target: Interferon regulatory factor 7, full length, phosphomimetic (IRF7, Homo sapiens, UniProt Q92985, residues 1-503, S471D/S472D/S475D/S476D/S477D/S483D/S484D/S487D)
# Residues (chain): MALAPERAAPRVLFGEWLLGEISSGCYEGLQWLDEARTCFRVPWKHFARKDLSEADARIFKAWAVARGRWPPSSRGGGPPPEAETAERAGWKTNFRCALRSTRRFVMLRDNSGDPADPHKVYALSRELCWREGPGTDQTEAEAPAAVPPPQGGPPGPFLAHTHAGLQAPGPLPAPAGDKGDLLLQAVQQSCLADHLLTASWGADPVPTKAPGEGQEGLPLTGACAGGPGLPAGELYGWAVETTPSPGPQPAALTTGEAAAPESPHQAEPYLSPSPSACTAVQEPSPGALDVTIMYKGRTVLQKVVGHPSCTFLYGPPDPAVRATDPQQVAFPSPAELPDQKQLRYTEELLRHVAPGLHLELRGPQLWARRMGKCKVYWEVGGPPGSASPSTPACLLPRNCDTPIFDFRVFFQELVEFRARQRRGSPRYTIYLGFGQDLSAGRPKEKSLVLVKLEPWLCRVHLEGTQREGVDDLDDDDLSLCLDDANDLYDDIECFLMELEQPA
Sequence,fitted relative affinity
TTAGGACTGGGTTTTGGTTAGTGCTAG,0.218 z-score
TTAGGTTTCGACACTGGGTTTGTGCTA,2.51 z-score
ATGGAAATGCACCCCACGCTGTGCTAG,0.502 z-score
TGGGTATTTTTTCTGAACCAGTGCTAG,0.613 z-score
TTAGGACTGGGGATTGGGTTAGTGCTA,-0.532 z-score
TTAGGTCTCCTTTTTCTTTAGTGCTAG,1.04 z-score
GACGGACTGGGTACCGGGACGTGCTAG,-1.01 z-score
GACGGTATCGGTATCGAGACGTGCTAG,0.205 z-score
GACGAATTGAGTTTCGAGACGTGCTAG,2.11 z-score
TTAGGACTGGCGTATCGGTTAGTGCTA,-0.757 z-score
GACGGTTTCGACGATCGGGACGTGCTA,1.48 z-score
GACGGACTGGACTTTCGGGATGTGCTA,3.19 z-score
GACGATATCGGGTTTCGGGACGTGCTA,1.88 z-score
TCATCTGTCCGTGCTCAGACTGTGCTA,1.24 z-score
GACGGTTTCGGTCTCGGTACGTGCTAG,6.86 z-score
TCATTTTTTTTTTCTGAACTGTGCTAG,2.22 z-score
AGTTTTTACTTTCTGAATGCGTGCTAG,5.19 z-score
GATTTTTTTCATATATATATGTGCTAG,1.05 z-score
TATTTTGGAAACTCACAACAGTGCTAG,0.352 z-score

# Series 3 — method: universal PBM; form: double-stranded DNA, one strand shown; sample: in vitro; tested at: not given; direction: higher = stronger binding
# Target: Sal-like protein 4, full length isoform B (SALL4, Homo sapiens, UniProt Q9UJQ4-2, residues 1-616)
# Notes: 8-mer, flanks averaged, mean of replicates
Sequence,E-score
GTCGTCCA,-0.0975
AGCGCGTA,-0.0423
AAGGCCCC,-0.27
CATTACGC,-0.00679
TATCGCAA,0.0635
ACTCGACA,-0.0778
GTAGTAAA,0.256
CGAGGTGC,-0.121
ATAAACGA,0.328
CACCATGA,-0.128
CGACTGGC,-0.339
ATGTCAAT,0.243
GAACGAAC,0.0253
AGTGGAAA,0.0734
CAAGAGAG,0.0882
ACCAATTG,0.131
CGTCTACA,-0.116
AGTAGTTG,0.00107
TGACCGCA,-0.197
CGCTTAGA,-0.18
CCCTGACC,-0.287
AGTCGACT,0.159
ATCTTCTG,0.0815
AGCAAACG,-0.139

# Series 4 — method: RNA Bind-n-Seq; form: RNA; sample: in vitro; tested at: 365 nM; baseline: no-protein control; direction: higher = stronger binding
# Target: RNA binding protein fox-1 homolog 2, RRM domain, GST-SBP tag (RBFOX2, Homo sapiens, UniProt O43251-10, residues 100-194)
# Notes: natural RNA segment, single round, ends assumed
# Constant ends, left off below: GGGAGUUCUACAGUCCGACGAUC … UGGAAUUCUCGGGUGCCAA
# Construct (chain): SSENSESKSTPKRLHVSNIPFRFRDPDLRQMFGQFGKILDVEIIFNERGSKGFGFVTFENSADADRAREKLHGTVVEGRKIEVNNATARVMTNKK
Sequence,RBNS enrichment (R)
UUGUGUAUAGGACUGCGUUCGUAGGCAUCCCCCCAGUUAUUCUGAAGGUCCUGUGCUGAUGGAGGCAUGACAGUCCUCUCGCAGCCUGAGGAGGGUUUUGUUCUGUCUGU,5.12
GGUGCCAGGAAAUUGAUUUUGGAAAAAGUGAAAUAACAUUAAAGGUGAAUGUGAGGCUUCUACUUUUAUCCAAAAGGAGCUAUAUUAGCUAGGCUGUUUCUGAUAUCCAA,0.673
CUAGGGACAUGAGUCGUGCCCAGGGUAUAAACCCAAACCUGGUCAUUUCUUGAACAGUCUGUGAAUAUGCCUGUGUGGACGCUGUAUCCUGCUGCUGUCCCUCUCCUGGU,0.315
CAAGGGAACCAGAGUUUGGUUCUUUAUGCAAAUUUUUUCCCAAUGAAAUAAAACAUAGUUAACUGUGUUUGAUGUGAAAUAAUAGAUUGUGGGUAGAGGUGAGGCCAAAA,0.497
UGGGCUCAAGCGAUUCUCUCUUCCUUGGCCUCUGGAGUAGACUAAAUGUGUUAGUCUUUGAAUGGAAAACAACUAUUUUCUCAUCAUUGGGUCAAUAUUGACUGAUCAGU,0.373
GAGAGACUAAGGGCACUUCCUGAGGUUCAUUACCACCUGGGGCAGAAGGACAGGGAGACAGCAACCAUCGCCUGACCACGCCGACCACAGGGCCUUGAAUCCUUUUUUGU,0.813
AAUGGUUCCGACUUGUCCCUCUCUCAGCCCUCCAUGGCCUGGCACGAGGGGAUGGGGAUGCUUCCGCCUUUCCGGGGCUGCUGGCCUGGCCCUUGAGUGGGGCAGCCUCC,0.283
UAACAUUGGGAUUUUACUUUGCCAGCCCCAGCCUUCAGAACUCCAUUGUCAUAGUACACCUGUAAAAAUGGUUGCACAUCAGAAGGGGCUUUGAAGCGCUUGUAUGUUGU,0.749

# Excerpt of the above (series 3):
Sequence,E-score
AAGGCCCC,-0.27
CATTACGC,-0.00679
TATCGCAA,0.0635
ACTCGACA,-0.0778
GTAGTAAA,0.256
CGAGGTGC,-0.121
ATAAACGA,0.328
CACCATGA,-0.128
